# Experimental data pooled from the literature.
# Each numbered part is a random draw from the data of one study; scales do not carry over between parts. Changes are numbered by the printed parent chain.

# Series 1 — method: competition protein-binding microarray; form: double-stranded DNA, one strand shown; matrix: in vitro; tested at: 2 µM; together with: Cbf1 competitor, 0.05 µM; direction: higher = stronger binding; shared flanks, not repeated: … GTCTTGATTCGCTTGACGCTGCTG
# Target: Phosphate system positive regulatory protein PHO4, full length, GST-tagged (PHO4, Saccharomyces cerevisiae, UniProt P07270, residues 1-312)
# Notes: whole 60-bp probe, lowest competitor level
# Residues (chain): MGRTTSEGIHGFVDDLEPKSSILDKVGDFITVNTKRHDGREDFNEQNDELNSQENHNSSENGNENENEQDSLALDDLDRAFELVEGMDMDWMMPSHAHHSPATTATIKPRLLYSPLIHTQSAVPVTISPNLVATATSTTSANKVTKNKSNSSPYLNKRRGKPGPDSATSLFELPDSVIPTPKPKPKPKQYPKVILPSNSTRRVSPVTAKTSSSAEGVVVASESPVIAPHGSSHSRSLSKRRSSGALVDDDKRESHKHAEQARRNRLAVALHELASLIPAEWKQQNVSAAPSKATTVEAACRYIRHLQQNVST
Sequence,fluorescence intensity [a.u.]
CTTCTGTAAATTTGATATGTGGGTGGACGCGCCCCG,5030
CAACATCAGCGCTGTCATGCGGTCTTTGAAATTCCT,6030
GAACAACTGTATTGCCACATGGGCAGACCAGATCGG,10700
ATTGGTGCAATTCCGCACGTTCCAACTTTCCGATGC,11800
CTGGTAAGTTTTTGGCCTGTGCGGGTTCATAAGGGA,4410
AAAGCGGTAATTTGCAGGGTGGGTGCAGATATCTAT,4830
TACAAGACTCCGAGTCACATGAAACCACACCTTCGG,4960
AAATTACTAAGTTGCCATGTGGGTGACGCCGTATGA,10700
AAGCAACAACACCGACCCGTGCCAGCGACATCTGCT,11600
CATACCCAACCTTGTTAAGTGGGTGAAGATATTTGT,3610
CTTTCCCGATCTTGTCACCGTACTTTAGCACATTTG,3950
CTAACGAAGGTTTTTCACGTGGAGTACAAGCCAAGT,12900
TGCGCAACAACTTGACTAGTGGGTGTATGTCTAGAA,4820

# Series 2 — target: CCNF, cyclin fold, Cln2 fusion (human); method: yeast growth competition, sequencing; matrix: yeast; notes: weak parent motif; reference: not given; direction: higher = stronger binding
# Parent: PKN2 docking peptide (human); VSAVQKLDFSDTM
Substitution,normalised enrichment score
VSAVQKLDQSDTM [F9Q],-0.0318
VFAVQKLDFSDTM [S2F],1.02
VSAVQKLDFYDTM [S10Y],0.669
VSAVQYLDFSDTM [K6Y],-0.829
VSAVQKLDFSDTD [M13D],0.951
VSAVQKHDFSDTM [L7H],0.132
VSMVQKLDFSDTM [A3M],0.135
VSAVQKLDFSDMM [T12M],0.842
VSAVQKLDFSDTN [M13N],0.652
VSAVQKLDFDDTM [S10D],0.99
VSAVQKLDFSVTM [D11V],1.12

# Series 3 — method: DHFR PCA, deep sequencing; matrix: yeast; together with: (+)-ABA 17 µM; reference: wild-type fitted maximum; direction: higher = stronger binding
# Target: ABI1, truncated, D143A, DHFR fusion (Arabidopsis thaliana)
# Notes: methotrexate growth selection, single substitutions
# Parent: PYL1, truncated, DHFR fusion (Arabidopsis thaliana); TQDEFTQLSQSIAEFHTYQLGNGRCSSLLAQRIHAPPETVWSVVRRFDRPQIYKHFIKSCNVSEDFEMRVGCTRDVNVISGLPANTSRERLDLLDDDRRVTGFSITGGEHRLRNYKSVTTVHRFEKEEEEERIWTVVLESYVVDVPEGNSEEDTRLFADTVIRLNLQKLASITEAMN; partner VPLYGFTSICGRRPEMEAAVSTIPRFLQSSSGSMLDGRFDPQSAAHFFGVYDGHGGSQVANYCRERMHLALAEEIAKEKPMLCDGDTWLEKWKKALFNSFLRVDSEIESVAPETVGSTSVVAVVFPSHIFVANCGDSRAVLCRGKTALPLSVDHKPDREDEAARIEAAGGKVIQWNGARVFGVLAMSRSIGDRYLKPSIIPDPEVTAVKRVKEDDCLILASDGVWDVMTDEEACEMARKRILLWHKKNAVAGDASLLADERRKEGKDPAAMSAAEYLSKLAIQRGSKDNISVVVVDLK
Substitution,relative binding score [%]
R24C,71.5
K168E,37.7
N114S,38.5
S87L,4.72
L112D,5.07
G102F,-7.02
G108Y,-3.34
I162Y,-1.99
D159E,71.6
D96C,10
V161A,1.31

# Series 4 — method: RNA Bind-n-Seq; form: RNA; matrix: in vitro; tested at: 365 nM; reference: no-protein control; direction: higher = stronger binding
# Target: RNA binding protein fox-1 homolog 2, RRM domain, GST-SBP tag (RBFOX2, Homo sapiens, UniProt O43251-10, residues 100-194)
# Notes: natural RNA segment, single round, ends assumed
# Shared flanks, not repeated: GGGAGUUCUACAGUCCGACGAUC … UGGAAUUCUCGGGUGCCAA
# Construct (chain): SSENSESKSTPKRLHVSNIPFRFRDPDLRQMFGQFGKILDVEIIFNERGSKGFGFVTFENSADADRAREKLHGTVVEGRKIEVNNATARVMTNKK
Sequence,RBNS enrichment (R)
AUCCGAGCUGGACUCCUCCUGUAGGGUGGACAGACUGUAUAUUGAUAAUUCCUUCUAUGCGCAGUUUAGACAUCUCUGUUGGGCUUUUUUUUUAAAUUUUUAUUUUAAAA,0.512
CAUUCUGUGCCUCUGGCUUGGCUGAACAGUUCUGGAAUUACCACCAGAAUCCUUGACUCCCUGCCCCUUGUAUAAAUUGGACAGCUUAGGACUUUUAAACUUUAGAUCAA,0.3
AUUGCCAGUUUUCUUCAUUCAGAAUCUGUUUGUUGAUCAAGUGACUGUCCCCGUAAAAAGUAGAAGAUAAGUUUGUUAAAGUAUUUUUUAUAAACAGCUUAAUAUAAAAC,0.511
CAGUCAUUUACCCAACUUACUCUAGAAAUGUCCACAGCUAAGGAAGGCUCCUGAGCCAGUCAGGCGGAGUUCAAGUGAUAUCUUGGGACAGUGACCAUGGUCUGCAUUAC,0.316
UAUCUAUAUCCAUAUGGAUGGAUAGGUAGGUAGAUCUUCAUAGAUUUUUUUUUCUUUUGUUAGAGGAGAGCUUGAUGUGAUUAUCUUCAAACCCACCAAACCAACAGGAU,0.329
GUUUACAAUACAUGUAUAACUUGUAGCUAUAAACAUUUUGUGCCAUUAAAGCUCUCACAAAACUUUUCCUGUCAGUAUAUCAUUUUUCUGUCGCACCUGUUGCCUGGGAG,0.629
CUUUAUAUGCAUUUUUAGAAUAAUUUGAGAGAUUAAAUGCUGCUUGAAACUAUUAUACUUUGAGUUUUAGAUUGGCCAAAUACAUUAAUGUAGUUAAAUUCAUCUUUAAA,1.12
ACUUUGUAAUGCUCUUUUGUAACUAUCGACAAAGGUGUGGGGAAGCUGAGGUCUAGGUCUUCUUAAAGGUCAAGUCUGCUCUCCCUCGCCUAAAGUGCAGCAGCAGCUCC,0.305
GAGGCUUCUAAUUAGCUGGAAAAGAGUAUUUUUCUAAUACGUUGCAAGGAUUAGCCAAAUCUUCUUAUUGAAGAAAGAAGAAAAGUGAAGAGUGGUUACCUAUACCUAGC,0.619
CUGCUUUCAGGAAGAUACAAAGAAACCACAUGAACUAGACCAGCAUCUGUGAACAUUGUGCUAUGUUCCACCUUGUUUGAAAACUGUGAAACAGUGUGGCAUGCCAACAU,1.09
ACUGAGGAUUCGCUUGGGAACGGGCAGGUGGUAGUAGGGGCGCCAGCUUGGGCUCUCCUGGCGCCCCGUAGCAUCGAGUGUCUUCUUUGUCUUCUUUCUCUCCUCACCCA,0.77
ACAUCUUCUGAAGGCCCUCACUGCCUCAAGCCCUCUCCCCUCCUCGCAGGGCAGGCUUGGUGCACUGGCUUCUCUCACAUCUUUCUUGCAAUUAUGAUACUCUGAGAUUU,0.308

# Series 5 — method: protein-binding microarray; form: double-stranded DNA, one strand shown; matrix: in vitro; tested at: 940 nM top; notes: 60-bp whole probe; together with: salmon DNA 0.4 mg/ml; reference: random background probes; direction: higher = stronger binding; shared flanks, not repeated: GCCTAGCAC … GTCTTGATTCGCTTGACGCTGCTG
# Target: Interferon regulatory factor 5, full length, phosphomimetic (IRF5, Homo sapiens, UniProt Q13568-2, residues 1-514, S451D/S453D/S456D/S462D)
Sequence,fitted relative affinity [z-score]
TCATCTTTACTTCACTCACTGTGCTAG,1.64
GAGATGATCCAGTTTTACCTGGTGCTA,-0.0162
TTAGGTTTCGACATTCGGTTAGTGCTA,8.16
GACGGACTGGGGTGTCGGGACGTGCTA,-0.0311
GACGGACTGGGGTTTCGGGCCGTGCTA,1.35
TCAACCCTCCCTCTGTAAGTGTGCTAG,0.34
TAAGAACTGAGTCTCGATTAGTGCTAG,3.44
TTAGGTTTCGGGTTTCGGCTAGTGCTA,10.5
TTCCTTCTGCCTGTCCATTCGTGCTAG,1.38
TTAGCTATCCTTCTCCTTTAGTGCTAG,0.539
GACGGTATCCTAATGCTGACGTGCTAG,-0.0702
GACGTTTTCCTTATCCTGACGTGCTAG,1.38
TTAGCACTGCTTTTCCTTTAGTGCTAG,-0.056
GACGGTACCGACACTGGGGACGTGCTA,-0.205
CTAGGACTGGACACTGGGTTAGTGCTA,-0.39

# Series 6 — method: protein binding microarray; form: double-stranded DNA, one strand shown; matrix: in vitro; tested at: not given; reference: not given; direction: higher = stronger binding
# Target: Histone acetyltransferase KAT6A, winged helix 2, GST fusion (KAT6A, Homo sapiens, UniProt Q92794, residues 85-181)
# Notes: 8-mer, flanks averaged, mean of 2 arrays, mostly near background
# Construct (chain): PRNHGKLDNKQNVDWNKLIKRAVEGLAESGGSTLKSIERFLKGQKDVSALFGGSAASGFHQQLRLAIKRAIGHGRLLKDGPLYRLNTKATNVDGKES
Sequence,E-score
ATTCGGCC,0.103
AGAGGCCC,-0.0897
AGACACAG,0.151
ACCCTGGA,-0.1
CAAAGAAA,0.0876
AAAGCGGG,0.0809
CAGTACAA,-0.131
GGTGCTGA,0.0393
ACGTTGGC,-0.179
CGAACGCG,0.152
CTTGGATC,-0.0393
GAGATTTA,0.0807
AAATAGCA,0.0959
GGCCATCA,-0.16
ACCGGGTA,-0.0279
CCTGGGCG,0.103
CGGAGTTC,0.112
TAGCCCGA,0.105
AGGAGTAA,-0.113
GTCCAAAA,0.0894
ACTAAAGC,0.183
CCTTCCAG,-0.0439
AACTGTTC,0.0439
CGCTACTA,0.0862
GGAAGGAA,0.0879

# Single results of other studies
Molecule,target,test,test system,conditions,scale,endpoint,result
"PhoQ, residues 284 288 289 292 302 303 ASTSDA","PhoP, residues 12 14 15 18 19 NMSSL (Escherichia coli, UniProt P23836)","Sort-seq, item: YFP reporter",E. coli,"PhoQ-PhoP variant library, together with: 10 µM Mg2+","reference: high Mg2+ state, higher = stronger signaling",fold induction,15.6

# Some of these lines once more (series 3):
Substitution,relative binding score [%]
N114S,38.5
R24C,71.5
V161A,1.31
K168E,37.7
I162Y,-1.99
